Assay results of several laboratories.
Numbered parts are unrelated; each lists some results of a single study.
Chain of UniProt P42685 (whole entry, looked up): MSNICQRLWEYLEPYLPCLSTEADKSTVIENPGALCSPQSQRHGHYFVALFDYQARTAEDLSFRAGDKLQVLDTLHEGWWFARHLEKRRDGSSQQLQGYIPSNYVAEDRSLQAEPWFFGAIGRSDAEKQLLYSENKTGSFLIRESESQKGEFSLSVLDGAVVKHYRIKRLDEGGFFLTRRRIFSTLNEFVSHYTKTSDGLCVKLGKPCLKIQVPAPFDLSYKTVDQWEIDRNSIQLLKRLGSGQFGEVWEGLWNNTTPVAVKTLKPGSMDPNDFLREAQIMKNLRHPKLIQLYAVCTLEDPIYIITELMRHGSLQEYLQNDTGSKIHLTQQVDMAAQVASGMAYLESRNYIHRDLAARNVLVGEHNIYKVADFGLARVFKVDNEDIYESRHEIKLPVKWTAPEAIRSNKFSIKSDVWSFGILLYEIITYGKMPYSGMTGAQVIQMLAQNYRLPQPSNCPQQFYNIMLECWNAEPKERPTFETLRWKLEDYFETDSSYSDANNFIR
Chain of UniProt P29320 (whole entry, looked up): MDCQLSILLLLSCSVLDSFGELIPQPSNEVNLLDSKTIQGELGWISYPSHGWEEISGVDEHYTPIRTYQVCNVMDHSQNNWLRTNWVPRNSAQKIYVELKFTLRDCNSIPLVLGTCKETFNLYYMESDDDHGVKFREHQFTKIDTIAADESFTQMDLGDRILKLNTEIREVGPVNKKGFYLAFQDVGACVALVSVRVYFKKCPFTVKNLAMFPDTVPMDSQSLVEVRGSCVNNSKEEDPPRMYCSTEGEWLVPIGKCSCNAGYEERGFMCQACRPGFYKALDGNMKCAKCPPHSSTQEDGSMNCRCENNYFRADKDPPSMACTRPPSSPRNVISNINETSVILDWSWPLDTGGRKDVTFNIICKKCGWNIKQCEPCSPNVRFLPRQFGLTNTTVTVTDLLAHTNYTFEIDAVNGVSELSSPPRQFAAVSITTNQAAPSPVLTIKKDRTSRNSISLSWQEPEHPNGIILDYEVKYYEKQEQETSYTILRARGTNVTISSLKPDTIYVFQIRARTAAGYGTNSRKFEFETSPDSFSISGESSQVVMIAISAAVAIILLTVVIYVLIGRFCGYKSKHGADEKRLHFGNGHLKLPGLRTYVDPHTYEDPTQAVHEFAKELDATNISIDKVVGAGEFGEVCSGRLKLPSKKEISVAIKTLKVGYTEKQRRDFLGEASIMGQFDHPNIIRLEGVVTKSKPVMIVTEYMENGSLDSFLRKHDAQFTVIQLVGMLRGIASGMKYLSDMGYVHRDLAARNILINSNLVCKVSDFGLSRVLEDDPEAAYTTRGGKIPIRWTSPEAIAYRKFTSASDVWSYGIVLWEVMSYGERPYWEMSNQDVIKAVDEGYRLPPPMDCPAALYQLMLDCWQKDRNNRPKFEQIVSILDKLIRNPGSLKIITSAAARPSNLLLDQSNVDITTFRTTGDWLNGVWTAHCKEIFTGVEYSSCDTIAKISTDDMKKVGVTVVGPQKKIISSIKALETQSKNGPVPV
Chain of UniProt P10398 (whole entry, looked up): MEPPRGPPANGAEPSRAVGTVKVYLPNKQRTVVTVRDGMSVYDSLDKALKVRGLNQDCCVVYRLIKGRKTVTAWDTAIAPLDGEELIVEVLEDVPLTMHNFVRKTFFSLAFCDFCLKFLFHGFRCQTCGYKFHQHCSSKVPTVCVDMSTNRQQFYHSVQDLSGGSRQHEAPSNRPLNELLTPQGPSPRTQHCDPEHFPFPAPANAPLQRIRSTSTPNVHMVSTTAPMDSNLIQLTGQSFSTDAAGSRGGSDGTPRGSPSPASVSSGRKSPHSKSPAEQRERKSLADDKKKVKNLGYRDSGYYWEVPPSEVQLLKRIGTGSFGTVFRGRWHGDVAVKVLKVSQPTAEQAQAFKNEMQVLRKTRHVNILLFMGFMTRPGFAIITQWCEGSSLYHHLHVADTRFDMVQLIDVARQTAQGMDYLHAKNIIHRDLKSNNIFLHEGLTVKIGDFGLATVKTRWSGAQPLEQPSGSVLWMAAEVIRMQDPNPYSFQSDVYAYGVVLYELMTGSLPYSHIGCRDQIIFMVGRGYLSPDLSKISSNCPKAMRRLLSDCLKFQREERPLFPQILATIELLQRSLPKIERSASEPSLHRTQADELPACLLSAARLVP
Chain of UniProt Q93WC4 (whole entry, looked up): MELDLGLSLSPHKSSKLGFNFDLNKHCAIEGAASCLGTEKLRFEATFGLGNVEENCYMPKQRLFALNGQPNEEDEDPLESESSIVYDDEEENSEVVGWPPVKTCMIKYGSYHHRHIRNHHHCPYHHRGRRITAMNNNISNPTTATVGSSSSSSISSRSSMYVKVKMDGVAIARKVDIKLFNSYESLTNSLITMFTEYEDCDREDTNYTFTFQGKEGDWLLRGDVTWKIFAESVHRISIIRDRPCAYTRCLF
Chain of UniProt Q96PY6 (whole entry, looked up): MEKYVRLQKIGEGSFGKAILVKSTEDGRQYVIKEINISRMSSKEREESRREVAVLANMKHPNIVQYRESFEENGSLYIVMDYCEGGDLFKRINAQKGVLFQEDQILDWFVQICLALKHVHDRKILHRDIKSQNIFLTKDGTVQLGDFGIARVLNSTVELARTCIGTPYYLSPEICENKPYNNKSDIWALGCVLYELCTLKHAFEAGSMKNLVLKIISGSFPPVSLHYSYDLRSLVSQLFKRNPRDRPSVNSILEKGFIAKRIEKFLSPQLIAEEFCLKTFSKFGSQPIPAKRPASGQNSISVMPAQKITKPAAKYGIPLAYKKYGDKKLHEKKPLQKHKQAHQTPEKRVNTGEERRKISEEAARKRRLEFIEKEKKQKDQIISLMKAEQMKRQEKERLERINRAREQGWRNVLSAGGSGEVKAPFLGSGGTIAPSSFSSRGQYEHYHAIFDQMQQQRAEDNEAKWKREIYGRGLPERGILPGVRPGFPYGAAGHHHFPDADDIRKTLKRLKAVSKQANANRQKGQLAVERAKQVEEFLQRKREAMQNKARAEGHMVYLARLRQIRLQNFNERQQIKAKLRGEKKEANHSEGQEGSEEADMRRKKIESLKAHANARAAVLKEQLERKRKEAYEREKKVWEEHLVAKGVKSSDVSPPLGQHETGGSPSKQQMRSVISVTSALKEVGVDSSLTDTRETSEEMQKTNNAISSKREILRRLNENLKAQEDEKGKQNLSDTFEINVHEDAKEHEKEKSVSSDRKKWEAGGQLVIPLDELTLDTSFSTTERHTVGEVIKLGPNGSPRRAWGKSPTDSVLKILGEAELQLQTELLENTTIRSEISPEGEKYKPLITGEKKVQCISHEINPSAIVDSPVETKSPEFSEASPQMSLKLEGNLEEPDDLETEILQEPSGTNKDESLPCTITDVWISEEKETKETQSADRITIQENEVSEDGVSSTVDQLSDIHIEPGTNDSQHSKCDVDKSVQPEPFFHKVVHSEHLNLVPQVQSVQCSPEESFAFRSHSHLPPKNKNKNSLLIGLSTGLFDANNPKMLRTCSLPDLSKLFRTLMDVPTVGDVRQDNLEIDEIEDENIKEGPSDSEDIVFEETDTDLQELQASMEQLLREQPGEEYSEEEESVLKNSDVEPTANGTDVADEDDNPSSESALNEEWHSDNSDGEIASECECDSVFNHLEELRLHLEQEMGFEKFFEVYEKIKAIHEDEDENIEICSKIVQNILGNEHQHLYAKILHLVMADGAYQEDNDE
Chain of UniProt Q16832 (whole entry, looked up): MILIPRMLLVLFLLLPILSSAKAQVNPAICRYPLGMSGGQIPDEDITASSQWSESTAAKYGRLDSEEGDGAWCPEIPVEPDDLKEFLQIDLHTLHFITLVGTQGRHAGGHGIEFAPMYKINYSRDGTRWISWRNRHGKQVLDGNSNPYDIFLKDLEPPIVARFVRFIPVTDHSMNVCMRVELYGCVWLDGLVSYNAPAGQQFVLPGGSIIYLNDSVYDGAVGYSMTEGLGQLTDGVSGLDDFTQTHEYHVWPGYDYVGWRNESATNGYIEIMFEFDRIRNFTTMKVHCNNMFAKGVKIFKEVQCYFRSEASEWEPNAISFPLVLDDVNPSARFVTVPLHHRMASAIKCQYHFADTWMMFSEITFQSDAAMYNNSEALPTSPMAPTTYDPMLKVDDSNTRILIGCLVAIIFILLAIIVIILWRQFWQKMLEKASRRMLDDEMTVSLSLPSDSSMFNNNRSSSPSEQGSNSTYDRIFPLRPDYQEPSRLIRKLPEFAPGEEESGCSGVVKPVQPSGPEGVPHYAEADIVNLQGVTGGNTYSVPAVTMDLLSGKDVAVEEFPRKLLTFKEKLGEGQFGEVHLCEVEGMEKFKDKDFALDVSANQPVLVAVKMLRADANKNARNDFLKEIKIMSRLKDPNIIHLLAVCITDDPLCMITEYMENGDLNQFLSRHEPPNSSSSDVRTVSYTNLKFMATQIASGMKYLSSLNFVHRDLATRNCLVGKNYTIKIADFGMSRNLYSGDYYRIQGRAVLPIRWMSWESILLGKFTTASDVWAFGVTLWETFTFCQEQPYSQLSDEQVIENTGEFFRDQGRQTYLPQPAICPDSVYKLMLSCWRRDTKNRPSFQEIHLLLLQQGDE
Chain of UniProt Q8WU08 (whole entry, looked up): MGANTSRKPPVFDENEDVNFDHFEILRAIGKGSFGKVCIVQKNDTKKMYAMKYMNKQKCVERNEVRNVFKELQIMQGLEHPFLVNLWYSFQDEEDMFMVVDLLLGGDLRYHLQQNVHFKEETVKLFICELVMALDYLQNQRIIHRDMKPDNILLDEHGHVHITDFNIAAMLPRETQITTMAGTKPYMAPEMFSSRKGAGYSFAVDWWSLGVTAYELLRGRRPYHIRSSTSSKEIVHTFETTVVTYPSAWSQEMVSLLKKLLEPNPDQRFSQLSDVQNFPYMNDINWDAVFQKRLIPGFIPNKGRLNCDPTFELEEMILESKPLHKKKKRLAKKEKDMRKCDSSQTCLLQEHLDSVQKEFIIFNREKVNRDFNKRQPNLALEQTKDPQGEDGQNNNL
Chain of UniProt Q9C966 (whole entry, looked up): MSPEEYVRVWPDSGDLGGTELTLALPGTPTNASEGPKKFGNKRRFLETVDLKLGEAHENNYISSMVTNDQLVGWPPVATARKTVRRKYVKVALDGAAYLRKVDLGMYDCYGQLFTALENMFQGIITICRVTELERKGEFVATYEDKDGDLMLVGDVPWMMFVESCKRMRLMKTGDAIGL

Set 1
Structure (SMILES): CNC(=O)Nc1ccc2c(c1)[C@@]1(CC2)OC(=O)N(CC(=O)N(Cc2ccc(F)cc2)[C@@H](C)C(F)(F)F)C1=O
Effect on: cell-free assay
Method: competition with immobilised ligand
Tested at: 1 µM
Quantity: remaining binding
CSNK1E (Homo sapiens, UniProt P49674): 80%
PKN2 (Homo sapiens, UniProt Q16513): 100%
RIPK4 (Homo sapiens, UniProt P57078): 52%
STK32A (Homo sapiens, UniProt Q8WU08): 100%
DDR2 (Homo sapiens, UniProt Q16832): 100%

Set 2
Target: Runt-related transcription factor 1, full length (RUNX1, Homo sapiens, UniProt Q01196-8, residues 1-480)
Method: protein-binding microarray
Molecule type: hairpin DNA
Sample: in vitro
Tested at: not given
Notes: whole hairpin DNA, median over replicate spots
Baseline: not given
Reading: higher = stronger binding
Quantity: median fluorescence
CTCAGTTCTGTGGGCAGGACTCCTGTCCTGCCCACAGAACTGAGACACTC: 2080 a.u.
GAGGCCTGTCGCAGTTGGCCTCCTGGCCAACTGCGACAGGCCTCACACTC: 1760 a.u.
GAGGCCTGTGGCGGTTGGCCTCCTGGCCAACCGCCACAGGCCTCACACTC: 2570 a.u.
GAGGCCTGGTGCGGTTGGCCTCCTGGCCAACCGCACCAGGCCTCACACTC: 2920 a.u.
GAGGCCTGTTGTGGCTGGCCTCCTGGCCAGCCACAACAGGCCTCACACTC (5mC at 15): 1960 a.u.
GAGGCCCAACCCGAACAGCCTCCTGGCTGTTCGGGTTGGGCCTCACACTC (5mC at 12 32): 1920 a.u.
GAGGCCTGTCGTGGTTGGCCTCCTGGCCAACCACGACAGGCCTCACACTC (5mC at 10): 3010 a.u.
GAGGCCTGTCGAGGTTGGCCTCCTGGCCAACCTCGACAGGCCTCACACTC: 1770 a.u.

Set 3
Molecule: B1 (IAA4)
Method: two-hybrid
Reading: higher = firmer interaction
Quantity: positive tests
B1: IAA4 (Arabidopsis thaliana, UniProt P33077); chain MEKVDVYDELVNLKATELRLGLPGTEETVSCGKSNKRVLPEATEKEIESTGKTETASPPKAQIVGWPPVRSYRKNNVQTKKSESEGQGNYVKVSMDGAPYLRKIDLTMYKQYPELMKSLENMFKFSVGEYFEREGYKGSDFVPTYEDKDGDWMLVGDVPWEMFVSSCKRLRIMKGSEVKGLGCGGL
IAA11 (Arabidopsis thaliana, UniProt Q38829); weak activation fusion; baseline: out of 4 tests: 2
ARF19 948-1086 (Arabidopsis thaliana, UniProt Q8RYC8); baseline: out of 4 tests: 4
IAA15 (Arabidopsis thaliana, UniProt Q9C966); baseline: out of 4 tests: 3
IAA20 (Arabidopsis thaliana, UniProt O24410); weak activation fusion; baseline: out of 4 tests: 2
IAA16 (Arabidopsis thaliana, UniProt O24407); baseline: out of 2 tests: 2
IAA26 (Arabidopsis thaliana, UniProt Q8LAL2); baseline: out of 4 tests: 1
IAA29 (Arabidopsis thaliana, UniProt Q93WC4); baseline: out of 4 tests: 1
ARF6 790-935 (Arabidopsis thaliana, UniProt Q9ZTX8); baseline: out of 4 tests: 3

Set 4
Structure (SMILES): O=C(c1cc2cc(O)ccc2[nH]1)c1cc2cc(O)ccc2[nH]1
Effect on: enzyme activity
Mode: inhibitor
Tested at: 0.5 µM
Baseline: control
Quantity: remaining activity
NEK1 (Homo sapiens, UniProt Q96PY6): 93.4%
MAPK3 (Homo sapiens, UniProt P27361): 107%
ABL2 (Homo sapiens, UniProt P42684): 27.2%
EPHA3 (Homo sapiens, UniProt P29320): 101%
ARAF (Homo sapiens, UniProt P10398): 98.6%
WEE1 (Homo sapiens, UniProt P30291): 90.6%
FRK (Homo sapiens, UniProt P42685): 86.1%
MAPKAPK2 (Homo sapiens, UniProt P49137): 103%
JAK3 (Homo sapiens, UniProt P52333): 94.5%
GSK3B (Homo sapiens, UniProt P49841): 78.7%
RPS6KA2 (Homo sapiens, UniProt Q15349): 22.2%
TAOK2 (Homo sapiens, UniProt Q9UL54): 99%
FGFR1 (Homo sapiens, UniProt P11362): 86.5%
TBK1 (Homo sapiens, UniProt Q9UHD2): 35%
